Assay results gathered from unrelated publications.
Every numbered part comes from another study and shows a few of its results, in no order.
Sequence of UniProt Q96BR1 (whole entry, looked up): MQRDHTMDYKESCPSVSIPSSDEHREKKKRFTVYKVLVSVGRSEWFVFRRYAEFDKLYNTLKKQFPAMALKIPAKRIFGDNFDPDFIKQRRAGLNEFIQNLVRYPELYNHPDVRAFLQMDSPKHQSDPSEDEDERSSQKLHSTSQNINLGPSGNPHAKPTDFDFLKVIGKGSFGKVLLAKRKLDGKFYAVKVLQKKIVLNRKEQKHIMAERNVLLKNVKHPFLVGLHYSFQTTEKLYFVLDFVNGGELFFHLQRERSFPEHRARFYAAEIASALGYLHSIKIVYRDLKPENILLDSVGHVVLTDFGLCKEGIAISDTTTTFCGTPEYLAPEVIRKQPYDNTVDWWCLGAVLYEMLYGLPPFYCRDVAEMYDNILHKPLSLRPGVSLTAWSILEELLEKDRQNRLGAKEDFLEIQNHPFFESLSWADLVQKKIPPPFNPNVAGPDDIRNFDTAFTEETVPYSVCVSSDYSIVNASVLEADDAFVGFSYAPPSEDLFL
Sequence of UniProt Q9C098 (whole entry, looked up): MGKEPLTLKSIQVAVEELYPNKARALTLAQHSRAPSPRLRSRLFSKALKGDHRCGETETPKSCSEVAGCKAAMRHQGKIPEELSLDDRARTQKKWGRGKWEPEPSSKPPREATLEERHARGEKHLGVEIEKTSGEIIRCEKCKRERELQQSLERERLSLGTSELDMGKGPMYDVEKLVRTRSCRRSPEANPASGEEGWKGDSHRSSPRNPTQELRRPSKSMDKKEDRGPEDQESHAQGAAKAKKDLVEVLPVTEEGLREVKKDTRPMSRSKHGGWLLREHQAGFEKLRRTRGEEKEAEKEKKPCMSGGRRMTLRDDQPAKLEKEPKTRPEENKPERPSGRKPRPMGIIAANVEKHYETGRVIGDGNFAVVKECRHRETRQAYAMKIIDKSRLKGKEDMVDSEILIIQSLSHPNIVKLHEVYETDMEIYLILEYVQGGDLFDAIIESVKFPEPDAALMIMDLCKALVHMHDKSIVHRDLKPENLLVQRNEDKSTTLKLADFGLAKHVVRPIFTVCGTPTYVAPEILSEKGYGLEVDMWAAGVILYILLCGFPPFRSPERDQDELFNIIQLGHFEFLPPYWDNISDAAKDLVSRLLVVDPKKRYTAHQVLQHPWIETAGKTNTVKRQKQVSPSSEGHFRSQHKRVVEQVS
Sequence of UniProt Q16620 (whole entry, looked up): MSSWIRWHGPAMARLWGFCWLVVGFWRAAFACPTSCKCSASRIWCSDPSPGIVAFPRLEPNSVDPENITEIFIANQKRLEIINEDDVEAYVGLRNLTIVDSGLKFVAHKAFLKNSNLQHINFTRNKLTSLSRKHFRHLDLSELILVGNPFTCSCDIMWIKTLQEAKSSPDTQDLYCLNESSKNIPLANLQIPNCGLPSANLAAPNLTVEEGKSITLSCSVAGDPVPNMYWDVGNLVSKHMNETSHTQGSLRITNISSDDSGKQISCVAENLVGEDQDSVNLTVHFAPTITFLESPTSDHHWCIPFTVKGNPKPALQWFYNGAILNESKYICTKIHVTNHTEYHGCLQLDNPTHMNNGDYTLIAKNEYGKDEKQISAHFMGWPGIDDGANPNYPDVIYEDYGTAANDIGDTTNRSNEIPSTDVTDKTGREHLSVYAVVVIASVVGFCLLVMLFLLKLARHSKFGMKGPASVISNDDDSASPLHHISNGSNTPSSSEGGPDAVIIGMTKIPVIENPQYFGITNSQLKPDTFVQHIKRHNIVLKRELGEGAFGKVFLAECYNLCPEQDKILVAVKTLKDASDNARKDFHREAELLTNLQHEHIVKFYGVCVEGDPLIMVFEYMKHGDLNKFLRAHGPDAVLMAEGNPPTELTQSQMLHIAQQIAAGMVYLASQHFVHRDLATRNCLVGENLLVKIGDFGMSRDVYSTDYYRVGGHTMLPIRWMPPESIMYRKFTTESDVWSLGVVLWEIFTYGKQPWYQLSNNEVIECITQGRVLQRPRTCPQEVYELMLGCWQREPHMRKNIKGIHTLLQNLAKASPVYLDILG
Sequence of UniProt Q13546 (whole entry, looked up): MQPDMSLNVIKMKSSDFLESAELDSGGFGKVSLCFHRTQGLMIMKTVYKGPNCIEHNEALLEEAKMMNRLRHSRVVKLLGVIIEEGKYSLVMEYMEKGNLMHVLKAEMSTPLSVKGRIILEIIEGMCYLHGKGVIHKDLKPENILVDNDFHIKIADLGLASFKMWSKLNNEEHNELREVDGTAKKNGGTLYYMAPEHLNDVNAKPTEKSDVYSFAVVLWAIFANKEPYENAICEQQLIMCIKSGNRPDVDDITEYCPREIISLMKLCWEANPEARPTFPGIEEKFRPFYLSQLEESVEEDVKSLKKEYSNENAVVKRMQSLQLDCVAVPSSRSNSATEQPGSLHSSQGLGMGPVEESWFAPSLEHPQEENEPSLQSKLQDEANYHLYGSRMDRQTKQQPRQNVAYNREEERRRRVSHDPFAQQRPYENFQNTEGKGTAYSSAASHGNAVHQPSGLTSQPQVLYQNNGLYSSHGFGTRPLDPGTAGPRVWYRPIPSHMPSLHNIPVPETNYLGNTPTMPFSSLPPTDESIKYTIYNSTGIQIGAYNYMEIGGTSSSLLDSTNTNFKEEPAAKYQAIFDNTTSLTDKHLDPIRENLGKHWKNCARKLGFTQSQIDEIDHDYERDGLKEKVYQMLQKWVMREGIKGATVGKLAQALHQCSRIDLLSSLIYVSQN
Sequence of UniProt O75676 (whole entry, looked up): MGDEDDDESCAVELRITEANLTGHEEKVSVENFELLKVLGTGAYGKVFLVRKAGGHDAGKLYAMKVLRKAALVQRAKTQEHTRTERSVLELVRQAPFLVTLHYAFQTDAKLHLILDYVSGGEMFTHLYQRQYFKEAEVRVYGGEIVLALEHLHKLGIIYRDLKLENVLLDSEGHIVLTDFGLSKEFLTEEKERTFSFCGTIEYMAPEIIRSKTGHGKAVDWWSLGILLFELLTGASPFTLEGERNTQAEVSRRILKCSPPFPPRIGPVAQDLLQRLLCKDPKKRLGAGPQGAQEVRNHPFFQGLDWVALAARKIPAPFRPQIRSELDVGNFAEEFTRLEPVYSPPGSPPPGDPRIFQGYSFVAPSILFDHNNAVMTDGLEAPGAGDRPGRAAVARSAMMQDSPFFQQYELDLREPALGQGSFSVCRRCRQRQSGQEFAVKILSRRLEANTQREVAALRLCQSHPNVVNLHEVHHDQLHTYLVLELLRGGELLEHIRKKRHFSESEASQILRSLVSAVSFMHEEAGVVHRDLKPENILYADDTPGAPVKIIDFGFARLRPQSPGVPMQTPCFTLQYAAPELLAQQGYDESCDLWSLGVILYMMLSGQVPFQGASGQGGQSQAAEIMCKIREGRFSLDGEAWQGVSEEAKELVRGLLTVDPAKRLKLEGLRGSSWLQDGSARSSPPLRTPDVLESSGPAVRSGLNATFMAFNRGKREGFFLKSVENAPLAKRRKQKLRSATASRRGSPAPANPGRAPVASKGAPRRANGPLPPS
Sequence of UniProt P10721 (whole entry, unmodified, looked up): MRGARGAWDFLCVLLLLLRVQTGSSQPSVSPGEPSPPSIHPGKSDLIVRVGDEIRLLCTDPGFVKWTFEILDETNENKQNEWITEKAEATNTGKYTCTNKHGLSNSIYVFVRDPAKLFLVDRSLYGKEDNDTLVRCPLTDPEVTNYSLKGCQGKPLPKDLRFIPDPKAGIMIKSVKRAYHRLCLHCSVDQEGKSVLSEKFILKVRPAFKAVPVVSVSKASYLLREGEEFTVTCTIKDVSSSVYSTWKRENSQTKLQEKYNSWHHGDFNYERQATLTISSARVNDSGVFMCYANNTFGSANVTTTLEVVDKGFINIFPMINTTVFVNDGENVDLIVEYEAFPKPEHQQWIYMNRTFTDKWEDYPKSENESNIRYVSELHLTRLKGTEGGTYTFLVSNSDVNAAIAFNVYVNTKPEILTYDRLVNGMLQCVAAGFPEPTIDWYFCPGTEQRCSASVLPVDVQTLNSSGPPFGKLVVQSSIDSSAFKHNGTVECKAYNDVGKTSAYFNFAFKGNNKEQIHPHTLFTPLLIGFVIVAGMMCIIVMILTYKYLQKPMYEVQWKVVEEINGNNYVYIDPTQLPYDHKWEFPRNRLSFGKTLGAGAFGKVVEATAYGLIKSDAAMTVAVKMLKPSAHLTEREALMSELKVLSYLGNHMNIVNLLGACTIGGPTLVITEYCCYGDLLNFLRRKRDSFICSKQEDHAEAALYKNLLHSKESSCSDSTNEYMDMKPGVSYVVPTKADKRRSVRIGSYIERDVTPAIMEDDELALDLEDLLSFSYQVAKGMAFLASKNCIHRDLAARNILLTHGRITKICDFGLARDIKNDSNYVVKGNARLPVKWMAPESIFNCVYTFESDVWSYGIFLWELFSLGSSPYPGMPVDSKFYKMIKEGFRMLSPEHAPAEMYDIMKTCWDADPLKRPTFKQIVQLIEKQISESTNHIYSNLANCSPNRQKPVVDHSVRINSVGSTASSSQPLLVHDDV

Set 1
Structure (SMILES): NS(=O)(=O)c1cc(NC(=O)C2(c3ccccc3Cl)CC2)ccc1Oc1cccc(Cl)c1
Effect on: cell-free assay
Method: competition with immobilised ligand
Tested at: 1 µM
It gave 91% for remaining binding (HIPK1 (Homo sapiens, UniProt Q86Z02)).
KIT (Homo sapiens, UniProt P10721, V559D/V654A) — remaining binding: 100%.
For CLK1 (Homo sapiens, UniProt P49759): remaining binding read 59%.
It gave 100% for remaining binding (PIKFYVE (Homo sapiens, UniProt Q9Y2I7)).
The remaining binding was 100% (PKN1 (Homo sapiens, UniProt Q16512)).
DCLK3 (Homo sapiens, UniProt Q9C098) — remaining binding: 56%.
It gave 100% for remaining binding (NTRK2 (Homo sapiens, UniProt Q16620)).
The remaining binding was 74% (SBK3 (Homo sapiens, UniProt P0C264)).
The remaining binding was 81% (MET (Homo sapiens, UniProt P08581)).
It gave 71% for remaining binding (Tyrosine-protein kinase ABL1, phosphorylated (ABL1, Homo sapiens, UniProt P00519, Q252H)).
Ribosomal protein S6 kinase alpha-4, C-terminal kinase domain (RPS6KA4, Homo sapiens, UniProt O75676) — remaining binding: 89%.
The remaining binding was 93% (RIPK1 (Homo sapiens, UniProt Q13546)).
For DDR1 (Homo sapiens, UniProt Q08345): remaining binding read 83%.
For SGK3 (Homo sapiens, UniProt Q96BR1): remaining binding read 90%.

Set 2
Target: Calcium/calmodulin-dependent protein kinase kinase 1 (CAMKK1, Homo sapiens, UniProt Q8N5S9)
Sequence of UniProt Q8N5S9 (whole entry, looked up): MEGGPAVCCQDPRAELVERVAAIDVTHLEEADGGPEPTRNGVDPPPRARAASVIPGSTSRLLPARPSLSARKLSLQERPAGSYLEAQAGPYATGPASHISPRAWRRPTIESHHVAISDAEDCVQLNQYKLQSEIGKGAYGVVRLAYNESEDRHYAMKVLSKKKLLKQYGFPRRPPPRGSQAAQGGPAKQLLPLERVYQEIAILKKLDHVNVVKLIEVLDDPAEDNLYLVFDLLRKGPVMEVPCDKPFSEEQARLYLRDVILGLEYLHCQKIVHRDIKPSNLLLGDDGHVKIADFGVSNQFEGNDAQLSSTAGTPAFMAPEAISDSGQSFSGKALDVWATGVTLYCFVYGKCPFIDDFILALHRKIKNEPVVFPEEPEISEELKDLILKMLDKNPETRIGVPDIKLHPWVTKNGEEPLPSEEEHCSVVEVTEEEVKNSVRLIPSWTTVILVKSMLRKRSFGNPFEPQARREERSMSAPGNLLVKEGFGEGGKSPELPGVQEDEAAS
Effect on: enzyme activity
Action: inhibitor
Tested at: 0.5 µM
Relative to: control
With COc1cc2ncnc(Nc3cccc(Cl)c3)c2cc1OC the remaining activity was 92.2%.
CCOc1nc(NC(=O)Cc2cc(OC)ccc2OC)cc(N)c1C#N has a remaining activity of 104%.
O=C(Nc1cccc(Nc2nccc(Nc3cccc(C(F)(F)F)c3)n2)c1)C1CC1 has a remaining activity of 97.9%.
O=C1C(Cl)=C(N2C(=O)CCC2=O)C(=O)c2ccccc21 gave a remaining activity of 112%.
CCN(CC)CCNC(=O)c1c(C)[nH]c(/C=C2\C(=O)Nc3ccc(Cl)cc32)c1C has a remaining activity of 47.7%.
Ic1cccc(CSc2nnc(-c3ccncc3)o2)c1 has a remaining activity of 124%.
O=C1c2ccccc2-c2n[nH]c3cccc1c23 has a remaining activity of 84.3%.
Cc1nc2cc3nc(-c4cccs4)cnc3cc2n1C gave a remaining activity of 127%.
CN(C)C[C@H]1CCn2c(c(C3=C(c4cn(C)c5ccccc45)C(=O)NC3=O)c3ccccc32)C1 gave a remaining activity of 116%.
For COc1cc2ncnc(Nc3ccc(O)c(Br)c3)c2cc1OC, the remaining activity was 95.8%.
CN([C@@H](Cc1ccc(OS(=O)(=O)c2cccc3cnccc23)cc1)C(=O)N1CCN(c2ccccc2)CC1)S(=O)(=O)c1cccc2cnccc12 has a remaining activity of 108%.
With CCN(CC)CCNC(=O)c1c(C)[nH]c(/C=C2\C(=O)Nc3ccc(F)cc32)c1C the remaining activity was 52.1%.
With c1ccc(-c2[nH]ncc2-c2ccnc3ccccc23)nc1 the remaining activity was 109%.
With CCN(CC)C(=O)c1ccc(Nc2nc(OCC3CCCCC3)c3[nH]cnc3n2)cc1 the remaining activity was 96.8%.
C[C@@H]1CCN(C(=O)CC#N)C[C@@H]1N(C)c1ncnc2[nH]ccc12 gave a remaining activity of 101%.

Set 3
Target: RNA binding protein fox-1 homolog 2, RRM domain, GST-SBP tag (RBFOX2, Homo sapiens, UniProt O43251-10, residues 100-194)
Method: RNA Bind-n-Seq
Molecule type: RNA
Matrix: in vitro
Tested at: 365 nM
Setting: natural RNA segment, single round, ends assumed
Relative to: no-protein control
Direction: higher = stronger binding
Under “RBNS enrichment (R)”, `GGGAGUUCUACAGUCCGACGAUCCUUAGGAACGAAAUUGUGCCCAGCCAGAAAGAAUGCUGGCUCAUAAUAGAUUCUUACCCAAUGCCACUGUCAGUAUCCCAGGUAGUGAAAUUCUUAAAGUGGUGGGGUAUUGGAAUUCUCGGGUGCCAA` is recorded as 0.857.
`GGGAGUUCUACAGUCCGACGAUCCCUGGCUGAGUCACUCUCCACGUCUAUCCUGAAAUCACUCAAUGCUUCUGCCGGGUUUUUGUACAUGUAAACACUGUCAAGCUGUGAAAGAAAGUGGCUGGAGGUGUGUUUGGAAUUCUCGGGUGCCAA`: “RBNS enrichment (R)” 1.01.
For `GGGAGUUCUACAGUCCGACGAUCUUAAAUGACACUCUUCCUUUAGAAUAUAACGGAUCAGUACUCAUGUUUAAUUGCCAUGCUUAAUAAAUCAUGAGAACAAAAGAGUAUAGAAUGGAAAGCAUUCCCUGGUAUGGAAUUCUCGGGUGCCAA`, “RBNS enrichment (R)” read 0.559.
`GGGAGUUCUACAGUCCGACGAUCGUCCCUCUCUCUCCAACAUCUUGAAGUUUGCAAUUUAGACAGCUCUUUGUUUUCUAAUGCAAUAUGUGCCUCUUCCCCUCGCUGAACCUCUAAGACAUAUGUAUUUCACAUGGAAUUCUCGGGUGCCAA`: “RBNS enrichment (R)” 0.549.
`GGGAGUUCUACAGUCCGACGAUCAAACCUUUCACUUUCCAAAGAGCUAGCCGUCCUCCACCCAGUACCAUGUCCUAGCCUGUCUGCAUUUGUUAGUGGUAAUAUUCUUUAUGUAUAAUAAAUUUUUAUACCCAUGGAAUUCUCGGGUGCCAA` — result for “RBNS enrichment (R)”: 2.56.
For `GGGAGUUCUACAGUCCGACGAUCUCAUGUAUUUAUAUGUUGUACACAGUACUGGCUGAUUCUGUAAAUGGAUGUAUUGUACAGAGAACAUGAACGUCUCUUCCUAAUUUUACAUCUUCAGCAUCAUUGCAUUAUGGAAUUCUCGGGUGCCAA`, “RBNS enrichment (R)” read 1.16.
For `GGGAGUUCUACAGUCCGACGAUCAGAUUUGAAUAAUGACCAAUUCUAAAAUCAAUAACGUUCCAUUUGCUUAUGUAGCACUUCUGGACCCUGCUAUAAGCUGAGAAGUCUAGAGGUUGGUUUGGGGACCAACCUGGAAUUCUCGGGUGCCAA`, “RBNS enrichment (R)” read 0.801.
Under “RBNS enrichment (R)”, `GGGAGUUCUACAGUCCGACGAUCUGCGGGAAAUUCAGUCUUGAUUUAACCUUAAUUUUACAGCCCUUGGCUUGUGUUAUCGGACAUUCUAAUGCAUAUUUAUAAGAGAAGUUUAACAAGUAUUUAUUCCCAUAUGGAAUUCUCGGGUGCCAA` is recorded as 0.632.

Single results of other studies
CCC[C@@H]1NC(=O)CSC[C@@H](C(=O)OCC)N(C)C(=O)[C@H](CC(C)C)NC(=O)[C@H](C)N(C)C(=O)[C@H](CC(C)C)NC(=O)[C@H](C)N(C)C(=O)[C@@H]2CCCN2C(=O)[C@@H](CC(C)C)NC(=O)CN(C)C1=O gave a logD of -0.302 (hydrocarbon/water).

A few entries again (set 2):
Cc1nc2cc3nc(-c4cccs4)cnc3cc2n1C gave a remaining activity of 127%.
CN(C)C[C@H]1CCn2c(c(C3=C(c4cn(C)c5ccccc45)C(=O)NC3=O)c3ccccc32)C1 gave a remaining activity of 116%.
For COc1cc2ncnc(Nc3ccc(O)c(Br)c3)c2cc1OC, the remaining activity was 95.8%.
CN([C@@H](Cc1ccc(OS(=O)(=O)c2cccc3cnccc23)cc1)C(=O)N1CCN(c2ccccc2)CC1)S(=O)(=O)c1cccc2cnccc12 has a remaining activity of 108%.
With CCN(CC)CCNC(=O)c1c(C)[nH]c(/C=C2\C(=O)Nc3ccc(F)cc32)c1C the remaining activity was 52.1%.
